Measured values of several laboratories.
Lines come from different studies, so protocols differ.
NR3C1: Glucocorticoid receptor (NR3C1, Homo sapiens, UniProt P04150)

Protein sequences, listed by entry. Tags and fused reporters are not part of them.
UniProt P04150, whole entry: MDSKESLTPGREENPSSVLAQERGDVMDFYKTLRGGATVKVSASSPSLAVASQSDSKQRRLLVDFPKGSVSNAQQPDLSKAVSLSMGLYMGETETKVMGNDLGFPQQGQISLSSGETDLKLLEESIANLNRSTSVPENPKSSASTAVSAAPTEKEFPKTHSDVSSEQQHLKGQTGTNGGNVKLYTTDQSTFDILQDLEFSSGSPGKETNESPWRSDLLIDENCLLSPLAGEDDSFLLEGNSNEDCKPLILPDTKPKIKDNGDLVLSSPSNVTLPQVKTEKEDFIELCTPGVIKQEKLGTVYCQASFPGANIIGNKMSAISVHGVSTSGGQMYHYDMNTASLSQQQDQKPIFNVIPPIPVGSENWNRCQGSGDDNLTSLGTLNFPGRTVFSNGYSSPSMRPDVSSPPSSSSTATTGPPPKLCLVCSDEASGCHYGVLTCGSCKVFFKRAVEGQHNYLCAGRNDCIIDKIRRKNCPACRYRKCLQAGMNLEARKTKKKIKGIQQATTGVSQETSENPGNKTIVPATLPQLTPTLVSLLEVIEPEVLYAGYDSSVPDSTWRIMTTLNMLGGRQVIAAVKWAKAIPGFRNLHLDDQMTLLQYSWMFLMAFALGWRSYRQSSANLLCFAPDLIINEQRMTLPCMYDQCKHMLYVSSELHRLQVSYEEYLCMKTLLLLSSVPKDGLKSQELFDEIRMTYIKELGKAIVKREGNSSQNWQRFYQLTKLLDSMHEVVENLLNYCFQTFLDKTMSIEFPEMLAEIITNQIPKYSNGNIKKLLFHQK
UniProt P07332, whole entry: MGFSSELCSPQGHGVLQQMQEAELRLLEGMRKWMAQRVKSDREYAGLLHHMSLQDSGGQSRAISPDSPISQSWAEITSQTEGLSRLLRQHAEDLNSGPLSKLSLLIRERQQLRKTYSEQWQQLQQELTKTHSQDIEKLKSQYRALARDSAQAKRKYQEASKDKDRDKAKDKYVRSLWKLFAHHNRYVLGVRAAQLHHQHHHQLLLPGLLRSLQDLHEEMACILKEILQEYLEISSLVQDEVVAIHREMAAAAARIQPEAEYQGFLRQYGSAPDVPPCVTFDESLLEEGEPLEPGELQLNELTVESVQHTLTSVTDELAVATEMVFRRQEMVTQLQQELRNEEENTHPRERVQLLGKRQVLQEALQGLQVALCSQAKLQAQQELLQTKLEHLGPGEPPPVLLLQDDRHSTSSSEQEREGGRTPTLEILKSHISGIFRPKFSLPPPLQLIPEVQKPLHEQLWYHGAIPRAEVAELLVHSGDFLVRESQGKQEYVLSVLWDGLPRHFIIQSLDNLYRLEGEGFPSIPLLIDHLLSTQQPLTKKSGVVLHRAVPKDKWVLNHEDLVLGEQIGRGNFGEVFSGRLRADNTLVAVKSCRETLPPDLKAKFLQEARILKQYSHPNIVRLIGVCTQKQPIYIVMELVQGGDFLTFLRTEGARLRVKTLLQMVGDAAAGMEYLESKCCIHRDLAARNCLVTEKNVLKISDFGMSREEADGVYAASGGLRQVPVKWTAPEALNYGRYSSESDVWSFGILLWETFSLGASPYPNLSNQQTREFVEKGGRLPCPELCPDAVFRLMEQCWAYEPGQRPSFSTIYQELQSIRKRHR

Structure (SMILES) | target or system | assay | test system | conditions | how to read | quantity | result
COc1ccc(N2C(=O)N(c3c(C)cccc3Cl)Cc3cnc(Nc4ccc(N5CCN(C)CC5)cc4OC)nc32)nc1 | – | – | mouse liver microsomes | – | – | half-life | 0.617 h
COc1cc(CC(=O)NCC(NC(=O)C(CCCNC(=O)c2cccc(I)c2)NC(=O)C(Cc2ccc(C(F)(F)P(=O)(O)O)cc2)NC(=O)c2ccc(C)c(Br)c2)C(N)=O)ccc1O (centres unmarked) | – | HPLC-MS/MS | mouse, plasma | intraperitoneal, 20 mg/kg | – | CL/F | 0.047 L/h
CN1CCN(c2nc(NCc3nc4cc(Cl)ccc4[nH]3)c3ncn(-c4ccoc4)c3n2)CC1 | – | – | DMEM with 10% FBS | – | – | solubility | 18 µM
CS(=O)(=O)c1ccc(NC(=O)CSc2nnc(-c3ccccc3F)n2-c2ccccc2)cc1 | – | – | octanol/buffer | pH 11 | – | logD | 1.74
Cc1cccc(NC(=O)c2nn(Cc3cnc[nH]3)c3c2CN(C(=O)c2ccc[nH]2)CC3)c1 | – | – | culture medium | – | – | stability | ≥ 14 days
CCc1c(-c2ccccc2)nn2c(=O)cc(-c3cccc(C(=O)O)c3)[nH]c12 | – | – | mouse | intravenous | – | half-life | < 1 h
O=C(Nc1cccnn1)N1CC(Oc2ccc(-c3ccccc3F)cn2)C1 | – | – | healthy humans | oral, 5 to 300 mg, single dose, range of means | – | terminal half-life | 5.4 to 11.2 h
C[C@@]12CCC(=O)C=C1CC[C@H]1C2[C@@H](O)C[C@]2(C)[C@@H]1CC[C@@]2(O)C(=O)COC(=O)C1CCCC1 (some centres unmarked) | NR3C1 | nuclear translocation, agonist, enzyme fragment complementation | – | – | – | EC50 | 610 nM
CCN(CC)C(=O)Oc1ccc(C(=O)Nc2cccc3cc[nH]c23)cc1 | – | nephelometry | aqueous solution | room temperature | – | solubility | 100 µM
C[C@H]1CCCN1Cc1cc2cnc(NC(=O)c3ccc4c(cnn4C)c3)cc2[nH]1 | – | – | healthy C57BL/6 mouse | dose not given, 80 days after treatment end | baseline: vehicle | blood counts and marrow cellularity | no effect
CC(=O)[C@H]1CC[C@@H]2[C@]1(C)CC=C1[C@@]23C=C[C@]2(C[C@H](O)CC[C@@]12C)[C@H](C(=O)O)[C@@H]3C(=O)O | NR3C1 | nuclear translocation, agonist, enzyme fragment complementation | – | – | – | EC50 | > 9000 nM
COc1cc(OC)c(NC(=O)CSc2nnc(-c3ccccc3)n2C)cc1Cl | – | – | aqueous buffer | pH 7.4 | – | solubility | < 2.65 µg/mL
CCN1CCN(Cc2ccc(NC(=O)c3ccc(C)c(Oc4ncnc5cc(OC)c(OC)cc45)c3)cc2C(F)(F)F)CC1 | Tyrosine-protein kinase Fes/Fps (FES, Homo sapiens, UniProt P07332) | KINOMEscan competition binding | – | 1.0 µM | – | residual probe binding | 0.8%
Cc1cc(C)c(CNC(=O)c2cc(-c3ccc(N4CCN(CCNC(=O)CC56CC7CC(CC(C7)C5)C6)CC4)nc3)cc3c2cnn3C(C)C)c(=O)[nH]1 | – | – | mouse Swiss albino male, plasma | p.o., 150 mg/kg single | – | Cmax | 1100 nM

A few entries again:
Structure (SMILES) | target or system | assay | test system | conditions | how to read | quantity | result
Cc1cccc(NC(=O)c2nn(Cc3cnc[nH]3)c3c2CN(C(=O)c2ccc[nH]2)CC3)c1 | – | – | culture medium | – | – | stability | ≥ 14 days
COc1cc(OC)c(NC(=O)CSc2nnc(-c3ccccc3)n2C)cc1Cl | – | – | aqueous buffer | pH 7.4 | – | solubility | < 2.65 µg/mL
